Measured values pooled from the literature.
Values joined by “and” are separate records of one study, mostly repeats; a detail may differ. ± gives the spread as reported.
HCK: Tyrosine-protein kinase HCK (HCK, Homo sapiens, UniProt P08631)
Sequence of UniProt P08631 (whole entry, looked up): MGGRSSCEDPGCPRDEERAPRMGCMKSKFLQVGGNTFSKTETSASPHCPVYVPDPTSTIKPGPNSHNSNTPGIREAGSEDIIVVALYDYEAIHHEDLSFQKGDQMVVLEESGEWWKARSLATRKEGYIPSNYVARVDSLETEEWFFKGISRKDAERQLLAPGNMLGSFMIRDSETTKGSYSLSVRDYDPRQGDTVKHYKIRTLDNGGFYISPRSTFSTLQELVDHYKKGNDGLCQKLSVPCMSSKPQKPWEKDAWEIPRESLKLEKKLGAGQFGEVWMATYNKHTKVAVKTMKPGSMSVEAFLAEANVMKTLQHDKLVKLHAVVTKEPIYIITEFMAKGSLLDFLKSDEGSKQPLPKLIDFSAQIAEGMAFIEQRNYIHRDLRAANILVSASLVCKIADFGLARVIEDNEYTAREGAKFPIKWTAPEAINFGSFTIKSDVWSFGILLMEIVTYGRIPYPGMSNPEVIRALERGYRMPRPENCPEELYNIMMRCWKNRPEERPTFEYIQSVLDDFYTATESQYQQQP
VCP: Transitional endoplasmic reticulum ATPase (VCP, Homo sapiens, UniProt P55072)
Sequence of UniProt P55072 (whole entry, looked up): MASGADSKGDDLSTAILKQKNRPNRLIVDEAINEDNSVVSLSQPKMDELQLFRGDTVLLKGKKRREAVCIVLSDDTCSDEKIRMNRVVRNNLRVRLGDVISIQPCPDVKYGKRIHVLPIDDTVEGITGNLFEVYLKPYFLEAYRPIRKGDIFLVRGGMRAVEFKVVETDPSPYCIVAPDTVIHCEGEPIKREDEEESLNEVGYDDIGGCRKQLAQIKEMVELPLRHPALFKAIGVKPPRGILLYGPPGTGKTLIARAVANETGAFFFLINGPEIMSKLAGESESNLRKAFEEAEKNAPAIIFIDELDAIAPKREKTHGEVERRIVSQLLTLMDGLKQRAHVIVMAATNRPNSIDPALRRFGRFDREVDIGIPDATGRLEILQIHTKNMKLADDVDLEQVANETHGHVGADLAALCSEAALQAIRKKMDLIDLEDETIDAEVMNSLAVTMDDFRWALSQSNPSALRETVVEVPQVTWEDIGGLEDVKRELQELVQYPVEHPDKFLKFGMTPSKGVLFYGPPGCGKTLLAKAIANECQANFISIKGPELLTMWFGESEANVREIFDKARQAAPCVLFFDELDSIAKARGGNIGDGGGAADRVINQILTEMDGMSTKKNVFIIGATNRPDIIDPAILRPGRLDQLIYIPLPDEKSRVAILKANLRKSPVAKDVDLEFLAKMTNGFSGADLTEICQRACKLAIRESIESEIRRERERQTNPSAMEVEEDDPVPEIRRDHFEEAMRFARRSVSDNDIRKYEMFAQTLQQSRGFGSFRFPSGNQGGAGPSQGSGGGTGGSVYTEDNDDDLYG
IRAK4: Interleukin-1 receptor-associated kinase 4 (IRAK4, Homo sapiens, UniProt Q9NWZ3)
Sequence of UniProt Q9NWZ3 (whole entry, looked up): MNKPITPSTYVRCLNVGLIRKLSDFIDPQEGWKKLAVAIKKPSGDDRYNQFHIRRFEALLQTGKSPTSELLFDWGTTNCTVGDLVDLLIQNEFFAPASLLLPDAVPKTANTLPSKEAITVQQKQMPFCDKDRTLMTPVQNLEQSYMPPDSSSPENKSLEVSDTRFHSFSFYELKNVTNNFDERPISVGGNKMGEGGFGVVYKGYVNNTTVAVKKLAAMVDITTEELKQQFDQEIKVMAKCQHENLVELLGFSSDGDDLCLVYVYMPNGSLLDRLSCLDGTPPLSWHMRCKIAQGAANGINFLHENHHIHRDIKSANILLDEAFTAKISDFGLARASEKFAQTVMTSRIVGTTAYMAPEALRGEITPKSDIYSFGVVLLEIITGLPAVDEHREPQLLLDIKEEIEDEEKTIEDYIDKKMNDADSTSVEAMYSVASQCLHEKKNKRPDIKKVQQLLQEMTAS
17-beta-hydroxysteroid dehydrogenase 13: 17-beta-hydroxysteroid dehydrogenase 13 (Homo sapiens, UniProt Q7Z5P4)
Sequence of UniProt Q7Z5P4 (whole entry, looked up): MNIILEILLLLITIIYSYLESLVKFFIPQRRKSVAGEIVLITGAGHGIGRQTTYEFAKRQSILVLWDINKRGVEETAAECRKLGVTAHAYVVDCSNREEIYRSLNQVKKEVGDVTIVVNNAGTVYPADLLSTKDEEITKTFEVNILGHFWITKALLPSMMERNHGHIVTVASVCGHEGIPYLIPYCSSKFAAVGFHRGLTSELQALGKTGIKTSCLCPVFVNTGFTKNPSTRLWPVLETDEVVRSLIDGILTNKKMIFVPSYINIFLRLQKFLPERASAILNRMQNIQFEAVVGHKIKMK
Sequence of UniProt Q91XE4 (whole entry, looked up): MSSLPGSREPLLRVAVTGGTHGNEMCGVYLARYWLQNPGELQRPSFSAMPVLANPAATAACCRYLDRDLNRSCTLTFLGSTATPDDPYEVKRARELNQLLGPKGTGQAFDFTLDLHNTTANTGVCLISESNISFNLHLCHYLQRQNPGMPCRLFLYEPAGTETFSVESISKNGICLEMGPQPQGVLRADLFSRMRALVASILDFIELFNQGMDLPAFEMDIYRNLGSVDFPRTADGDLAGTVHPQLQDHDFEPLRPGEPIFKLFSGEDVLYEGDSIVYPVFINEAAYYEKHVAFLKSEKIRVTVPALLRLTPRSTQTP
Sequence of UniProt Q9R1P1 (whole entry, looked up): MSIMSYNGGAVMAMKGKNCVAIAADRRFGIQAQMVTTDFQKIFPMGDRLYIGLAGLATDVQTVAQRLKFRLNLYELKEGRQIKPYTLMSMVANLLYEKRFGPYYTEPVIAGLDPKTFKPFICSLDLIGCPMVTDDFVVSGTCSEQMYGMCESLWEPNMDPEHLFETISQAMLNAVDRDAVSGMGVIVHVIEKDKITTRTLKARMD
Sequence of UniProt Q6B856 (whole entry, looked up): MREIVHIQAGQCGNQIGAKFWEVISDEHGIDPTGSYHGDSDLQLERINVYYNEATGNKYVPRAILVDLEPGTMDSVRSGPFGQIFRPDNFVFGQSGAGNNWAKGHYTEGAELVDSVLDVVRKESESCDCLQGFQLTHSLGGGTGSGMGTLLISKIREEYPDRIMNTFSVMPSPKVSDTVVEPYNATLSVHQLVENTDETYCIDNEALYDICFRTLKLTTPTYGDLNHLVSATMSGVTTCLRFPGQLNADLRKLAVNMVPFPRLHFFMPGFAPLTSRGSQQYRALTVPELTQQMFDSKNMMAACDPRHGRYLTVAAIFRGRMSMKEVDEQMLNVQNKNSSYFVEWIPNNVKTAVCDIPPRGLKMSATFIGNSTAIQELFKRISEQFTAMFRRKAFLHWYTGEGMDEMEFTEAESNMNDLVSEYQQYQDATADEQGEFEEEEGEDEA
Sequence of UniProt P00742 (whole entry, looked up): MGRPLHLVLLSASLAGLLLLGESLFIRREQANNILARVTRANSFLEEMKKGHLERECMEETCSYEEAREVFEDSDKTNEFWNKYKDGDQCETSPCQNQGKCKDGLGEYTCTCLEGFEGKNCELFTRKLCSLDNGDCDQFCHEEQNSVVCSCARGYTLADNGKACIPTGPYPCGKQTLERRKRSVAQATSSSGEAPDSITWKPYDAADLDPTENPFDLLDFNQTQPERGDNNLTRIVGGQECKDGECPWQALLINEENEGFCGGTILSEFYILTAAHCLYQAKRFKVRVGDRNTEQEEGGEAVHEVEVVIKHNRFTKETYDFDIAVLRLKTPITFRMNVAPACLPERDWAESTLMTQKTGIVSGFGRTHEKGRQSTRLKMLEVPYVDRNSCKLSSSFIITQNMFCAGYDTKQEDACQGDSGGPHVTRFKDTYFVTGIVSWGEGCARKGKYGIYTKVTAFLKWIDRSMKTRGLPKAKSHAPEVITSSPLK
Sequence of UniProt Q8IWT6 (whole entry, unmodified, looked up): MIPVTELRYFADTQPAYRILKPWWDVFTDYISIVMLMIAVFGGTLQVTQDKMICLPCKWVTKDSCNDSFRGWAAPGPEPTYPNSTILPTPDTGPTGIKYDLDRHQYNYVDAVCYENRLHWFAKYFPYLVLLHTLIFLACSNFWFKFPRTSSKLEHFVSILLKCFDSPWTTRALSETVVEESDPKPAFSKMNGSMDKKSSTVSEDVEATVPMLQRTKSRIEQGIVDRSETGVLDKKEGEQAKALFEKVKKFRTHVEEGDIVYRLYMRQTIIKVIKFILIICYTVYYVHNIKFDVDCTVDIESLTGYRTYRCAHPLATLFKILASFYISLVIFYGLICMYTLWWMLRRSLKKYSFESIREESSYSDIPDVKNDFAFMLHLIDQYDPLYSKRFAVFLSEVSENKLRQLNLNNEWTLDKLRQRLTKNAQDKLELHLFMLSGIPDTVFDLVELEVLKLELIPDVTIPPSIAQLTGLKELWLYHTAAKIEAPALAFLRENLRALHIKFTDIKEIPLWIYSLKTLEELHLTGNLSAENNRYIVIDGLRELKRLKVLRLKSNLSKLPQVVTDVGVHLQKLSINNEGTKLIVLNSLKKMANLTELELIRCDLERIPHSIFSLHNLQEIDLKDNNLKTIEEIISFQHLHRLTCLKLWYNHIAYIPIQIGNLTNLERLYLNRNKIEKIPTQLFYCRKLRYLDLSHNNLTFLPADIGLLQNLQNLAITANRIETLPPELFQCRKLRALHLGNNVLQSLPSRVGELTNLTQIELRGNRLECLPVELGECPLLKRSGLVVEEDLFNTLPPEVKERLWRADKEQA
Sequence of UniProt Q99873 (whole entry, looked up): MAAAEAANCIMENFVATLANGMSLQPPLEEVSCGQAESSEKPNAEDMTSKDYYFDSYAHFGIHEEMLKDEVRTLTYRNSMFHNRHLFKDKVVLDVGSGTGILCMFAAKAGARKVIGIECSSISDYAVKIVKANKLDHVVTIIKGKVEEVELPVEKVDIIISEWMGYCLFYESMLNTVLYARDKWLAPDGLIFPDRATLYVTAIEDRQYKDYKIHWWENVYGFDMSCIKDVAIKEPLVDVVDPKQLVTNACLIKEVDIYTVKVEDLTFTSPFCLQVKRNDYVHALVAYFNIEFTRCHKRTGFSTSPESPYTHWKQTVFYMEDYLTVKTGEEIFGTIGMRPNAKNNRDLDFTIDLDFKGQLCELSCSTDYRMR

| SMILES | target | test | test system | conditions | IC50 |
| --- | --- | --- | --- | --- | --- |
| Cc1cnc(-c2ccc(-c3ccc(NC(=O)Nc4c(F)cc(F)cc4F)cc3F)c3c2C(=O)NC3)[nH]1 | HCK | enzyme activity, inhibitor, mobility shift |  | with: ATP 1 mM | 0.0678 µM |
| Clc1ccccc1CNc1nc(-c2ccccc2)nc2ccccc12 | VCP | enzyme activity, inhibitor |  |  | 30 ± 10 µM |
| CC(C)C[C@H](NC(=O)[C@H](CCc1ccccc1)NC(=O)CN1CCOCC1)C(=O)N[C@@H](Cc1ccccc1)C(=O)N[C@@H](CC(C)C)C(=O)[C@@]1(C)CO1 | Psmb10/Psmb3 (Mus musculus, UniProt O35955+Q9R1P1) | proteasome subunit activity | Ba/F3 BCR-ABL1 T315I | 1 h pulse | 0.0609 ± 0.00475 µM |
| [Cl-].[Cl-].[Zn+2] | HVCN1 (Homo sapiens, UniProt Q96D96, E119H) | whole-cell voltage clamp |  | 120 mV, open probability 0.3 | 0.51 µM |
| CC[C@@H]1[C@H](F)C(=O)N[C@@H]1COc1nccc2cc(C(N)=O)c(OC)cc12 | GRK2 (Homo sapiens, UniProt P25098) | ATP probe binding, KiNativ profiling, item: BARK1 Lys2 probe site | THP-1 cell lysate |  | > 5 µM |
| O=C(Nc1cccc2c(=O)cc(-c3nnn[nH]3)oc12)c1ccc(OCCCCc2ccccc2)cc1 | LRRC8A/LRRC8C (Homo sapiens, UniProt Q8IWT6+Q8TDW0, E6A) | ion current, inhibitor, whole-cell patch clamp | HCT116 LRRC8-/- transfected | at -100 mV | 0.79 µM |
| COc1ccc(Nc2nc(NCc3ccccc3)c3ccccc3n2)cc1 | VCP | enzyme activity, inhibitor |  |  | 3.8 ± 0.5 µM |
| CNC(=O)c1ccccc1Nc1nc(Nc2ccc(CO)cc2)ncc1C1CC1 | IRAK4 |  |  | cell-based | 0.0316 ± 0.00356 µM |
| COc1ccc(Nc2nc(N3CCN(S(=O)(=O)c4ccc(C)cc4)CC3)nc3ccccc23)cc1 | VCP | enzyme activity, inhibitor |  |  | 22 ± 12 µM |
| Fc1ccc(-c2nc(-c3cccnc3)[nH]c2-c2ccncc2)cc1 | TGFBR2 (Homo sapiens, UniProt P37173) | inhibitor |  |  | 0.852 ± 0.0702 µM |
| C#Cc1cnc(Nc2ccnc(CO)c2)nc1Nc1ccccc1S(C)(=O)=NC#N (stereo not shown) | IRAK4 |  |  | cell-based | 0.0268 ± 0.00098 µM |
| COc1ccnc(CNC(=O)c2cnn(Cc3ccc(Cn4ccccc4=O)cc3)c2)c1F | F10 (Homo sapiens, UniProt P00742) |  |  |  | > 40 µM |
| Cc1cc2c(F)c(Oc3ncnn4cc(OC[C@@H](C)O)c(C)c34)ccc2[nH]1 | ABCB1 (Homo sapiens, UniProt P08183) | inhibitor |  | 1 h | 44.1 µM |
| FC(F)(F)c1ccc2c(NCc3ccccc3)nc(NCc3ccccc3)nc2c1 | VCP | enzyme activity, inhibitor |  |  | 9.1 ± 2 µM |
| Cc1ccc(C(=O)Nc2ccc(S(=O)(=O)O)c3cc(S(=O)(=O)O)cc(S(=O)(=O)O)c23)cc1NC(=O)c1cccc(NC(=O)Nc2cccc(C(=O)Nc3cc(C(=O)Nc4ccc(S(=O)(=O)O)c5cc(S(=O)(=O)O)cc(S(=O)(=O)O)c45)ccc3C)c2)c1 | SLC25A13 (Homo sapiens, UniProt Q9UJS0) | aspartate/glutamate exchange | proteoliposomes | 1 min, with: [14C]Asp 1 mM, Glu 20 mM inside | 1.37 ± 0.11 µM |
| COc1ccc(CNc2nc(-c3ccc(OC)cc3)nc3ccccc23)cc1 | VCP | enzyme activity, inhibitor |  |  | 13 ± 4 µM |

| SMILES | target | test | test system | conditions | IC50 |
| --- | --- | --- | --- | --- | --- |
| CC[C@H](C)[C@H](NC(=O)[C@H](CS)NC(=O)[C@H](CCC(=O)O)NC(=O)[C@H](C)NC(=O)[C@@H](NC(=O)[C@@H](N)CCCNC(=N)N)[C@@H](C)CC)C(=O)N[C@@H](CC(C)C)C(=O)NCC(=O)N[C@@H](CCSC)C(=O)O | HLA class I histocompatibility antigen, A alpha chain, allele A*02:06 (Homo sapiens, UniProt P04439) | binding, competitor, radioligand competition |  | two days, room temperature, HLA-A*02:06 | 1.68 µM |
| CN1CCN(c2ccc(Nc3ncc4cc(C#N)c(=O)n(C5CCCC5)c4n3)cc2)CC1 | Aurora kinase B (AURKB, Homo sapiens, UniProt Q96GD4) |  |  |  | 0.259 µM |
| CCc1ccc(-c2ccc3c(C(=O)c4cc(OC)c(O)c(OC)c4)c[nH]c3c2)cc1 | Tubulin alpha-1B chain/TUBB2B (Bos taurus, UniProt P81947+Q6B856) | tubulin polymerization, inhibitor, turbidimetric |  | with: 10 µM bovine tubulin | > 20 µM |
| O=c1nc(SCc2cc(F)cc(C(F)(F)F)c2)nc(SCc2ccc3nc(Cl)ccc3c2)[nH]1 | TOP2A (Homo sapiens, UniProt P11388) | ATPase activity, ATP-competitive inhibitor |  | with: ATP 0.25 mM | 25.6 µM |
| N=C(NCCCSC[C@H]1O[C@@H](n2cnc3c(NCCCc4ccccc4)ncnc32)[C@H](O)[C@@H]1O)NCC1CCCCC1 | PRMT1 (Homo sapiens, UniProt Q99873) | enzyme activity, inhibitor, SAHH-coupled fluorescence |  | with: 5 µM histone H4 peptide, 10 µM SAM | 1.21 ± 0.07 µM |
| Cc1ccc(-c2nc(NCc3ccccc3)c3ccccc3n2)cc1 | VCP | enzyme activity, inhibitor |  |  | 5.7 ± 0.7 µM |
| CCCCCN1C[C@H](O)[C@@H](O)[C@H](O)[C@@H]1CO | Beta-glucosidase (GBA2, Homo sapiens, UniProt Q9HCG7) | enzyme activity, inhibitor | cell lysate | with: 4-MU-β-D-glucopyranoside | 0.01 µM |
| O=C(O)c1ccc(NS(=O)(=O)c2ccc(Cl)c(Cl)c2)c2ncccc12 | 17-beta-hydroxysteroid dehydrogenase 13 | inhibitor, NAD(P)H-Glo |  | with: β-estradiol | 0.047 µM |
| Clc1ccc(Nc2nc(NCc3ccccc3)c3ccccc3n2)cc1Cl | VCP | enzyme activity, inhibitor |  |  | 8.1 ± 2.6 µM |
| Cc1ccc(-n2sc3ccccc3c2=O)cc1 | HCK | inhibitor, Z'-Lyte kinase |  | without Nef | > 50 µM |
| Cn1cc2c(C(=O)O)ccc(NS(=O)(=O)c3ccc(OCC4CCC4)c(Cl)c3)c2n1 | 17-beta-hydroxysteroid dehydrogenase 13 | inhibitor | Huh-7 overexpressing target | 3 h | 0.075 µM |
| Cc1cc(C)nc(NC(=S)N2CCN(c3ccncc3)CC2)c1 | MAPK12 (Homo sapiens, UniProt P53778) | kinase activity, inhibitor, ADP-Glo |  |  | 1 µM |
| CNC(=O)c1ccccc1Nc1nc(Nc2ccnc(CO)c2)ncc1Cl | IRAK4 |  |  | cell-based | 0.0235 ± 0.00252 µM |
| COc1ccc(-c2nc(NCc3ccccc3)c3ccc(Cl)cc3n2)cc1 | VCP | enzyme activity, inhibitor |  |  | 25 ± 11 µM |
| CCOc1ccc(C(C)(CC(=O)O)C(=O)O)cc1 (stereo not shown) | N-acyl-aromatic-L-amino acid amidohydrolase (carboxylate-forming) (Acy3, Mus musculus, UniProt Q91XE4) |  |  | with: NA-Tyr substrate | ~0.001 µM and 0.00063 µM |

A few entries again:
| SMILES | target | test | test system | conditions | IC50 |
| --- | --- | --- | --- | --- | --- |
| Clc1ccc(Nc2nc(NCc3ccccc3)c3ccccc3n2)cc1Cl | VCP | enzyme activity, inhibitor |  |  | 8.1 ± 2.6 µM |
| Cn1cc2c(C(=O)O)ccc(NS(=O)(=O)c3ccc(OCC4CCC4)c(Cl)c3)c2n1 | 17-beta-hydroxysteroid dehydrogenase 13 | inhibitor | Huh-7 overexpressing target | 3 h | 0.075 µM |
| CC(C)C[C@H](NC(=O)[C@H](CCc1ccccc1)NC(=O)CN1CCOCC1)C(=O)N[C@@H](Cc1ccccc1)C(=O)N[C@@H](CC(C)C)C(=O)[C@@]1(C)CO1 | Psmb10/Psmb3 (Mus musculus, UniProt O35955+Q9R1P1) | proteasome subunit activity | Ba/F3 BCR-ABL1 T315I | 1 h pulse | 0.0609 ± 0.00475 µM |
| COc1ccnc(CNC(=O)c2cnn(Cc3ccc(Cn4ccccc4=O)cc3)c2)c1F | F10 (Homo sapiens, UniProt P00742) |  |  |  | > 40 µM |
